Measurements pooled from the literature.
Lines come from different studies, so protocols differ.

CC1(C)C(NC(=O)C(=NOC2(C(=O)O)CC2)c2csc(N)n2)C(=O)N1OS(=O)(=O)O (stereo not drawn) — CC50 (GES1; cell growth or viability): > 100 µM
O=C(Nc1cccc(N2CCOCC2)c1)c1cc(-c2ccccc2)n(-c2ccccc2)n1 — CC50 (HeLa; cell growth or viability): > 50 µM
CNC(=O)c1ccc([C@H]2[C@@H](F)[C@@H](F)C[C@@H](F)[C@H]2F)cc1 — hepatic clearance (liver microsome stability; rat liver microsomes; 1 µM): 6.9 mL/min/kg
O=C(O)c1ccc(Nc2c(-c3ccccc3)nc3cc(-c4ccccc4)ccn23)cc1 — CC50 (MCF7; cell growth or viability; 72 h): 110 µM
CCCCCCC1CCC/C1=N\NC(N)=S (stereo not drawn) — CC50 (ldlA[mSR-BI] CHO; 24 h): 2.1 µM
CCOC(=O)c1c(C(=O)OC)cn(CC(c2cn(C)c3ccccc23)c2cn(C)c3ccccc23)c1C — CC50 (HaCaT; cell growth or viability, MTS; 24 h): > 20 µM
O=C(Nc1cc(F)c(F)c(F)c1)c1ccc(F)c(S(=O)(=O)N2CCC(O)CC2)c1 — CC50 (HepG2.2.15; cell growth or viability, CCK-8; 6 days): 6.9 µM
O=C(c1cc(-c2ccccc2)n(-c2ccccc2)n1)N1CCN(Cc2ccccn2)CC1 — CC50 (HeLa; cell growth or viability): > 100 µM
CC(=O)N(C)CCN1CCN(c2cnc3c(cc(C(=O)NCc4ccc(Cl)cc4)c(=O)n3CC(=O)N3CC(C)(F)C3)n2)C1=O — CC50 (MRC5; cell growth or viability, CCK-8): > 40 µM
OC(CNc1cccc(Cl)c1)CN1c2ccccc2Sc2ccccc21 (stereo not drawn) — CC50 (CEM-SS; cell growth or viability, XTT; 6 days): 9 µM
Cc1cc(C(=O)Nc2cccc(C(N)=O)c2)n(Cc2ccccc2)n1 — CC50 (HeLa; cell growth or viability): > 50 µM
CCOC(=O)c1cn(CC(c2c[nH]c3cc(Br)ccc23)c2c[nH]c3cc(Br)ccc23)c(C)c1C(=O)OC — CC50 (HaCaT; cell growth or viability, MTS; 24 h): > 20 µM
Cc1ccccc1-n1nc(C(=O)Nc2cccc(C(N)=O)c2)cc1-c1cccnc1 — CC50 (HeLa; cell growth or viability): > 50 µM
COCC(=O)N1CCc2cc(-c3csc(NC(=O)c4cc(OC)cc(OC)c4)n3)ccc21 — CC50 (ldlA[mSR-BI] CHO; 24 h): > 35 µM
CC1(F)CN(C(=O)Cn2c(=O)c(C(=O)NCc3ccc(Cl)cc3)cc3nc(N4CCN(CCN)C4=O)cnc32)C1 — CC50 (MRC5; cell growth or viability, CCK-8): > 40 µM
O=C(Nc1cccc(CNc2ncccn2)c1)c1cc(-c2ccccc2)n(-c2ccccc2)n1 — CC50 (HeLa; cell growth or viability): > 100 µM
O=C(CC12CC3CC(CC(C3)C1)C2)NCCOCC(=O)NC1CCN(S(=O)(=O)c2cc(C(=O)Nc3cc(F)c(F)c(F)c3)ccc2F)CC1 — CC50 (HepG2.2.15; cell growth or viability, CCK-8; 6 days): 59.3 µM
O=C(Nc1ccc(C2CCCCC2)cc1)C1CC1 — hepatic clearance (hepatocyte stability; cryopreserved mouse hepatocytes; 1 µM): 81 mL/min/kg

A few entries again:
O=C(O)c1ccc(Nc2c(-c3ccccc3)nc3cc(-c4ccccc4)ccn23)cc1 — CC50 (MCF7; cell growth or viability; 72 h): 110 µM
CCCCCCC1CCC/C1=N\NC(N)=S (stereo not drawn) — CC50 (ldlA[mSR-BI] CHO; 24 h): 2.1 µM
COCC(=O)N1CCc2cc(-c3csc(NC(=O)c4cc(OC)cc(OC)c4)n3)ccc21 — CC50 (ldlA[mSR-BI] CHO; 24 h): > 35 µM
